# Results collected from several papers.
# Compare with care: the assays were run in different laboratories. Several values in a cell are separate wells, animals, samples, runs or records.
# 4'-phosphopantetheinyl transferase PptT: 4'-phosphopantetheinyl transferase PptT (Mycobacterium tuberculosis, UniProt O33336)
# UniProt O33336, sequence (whole entry, looked up): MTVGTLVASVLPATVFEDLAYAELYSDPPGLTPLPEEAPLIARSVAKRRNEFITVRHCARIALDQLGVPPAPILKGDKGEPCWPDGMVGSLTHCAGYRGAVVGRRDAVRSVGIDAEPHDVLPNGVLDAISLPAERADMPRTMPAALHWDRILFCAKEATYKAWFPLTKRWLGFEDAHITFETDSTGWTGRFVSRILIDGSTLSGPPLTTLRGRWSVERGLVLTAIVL
# cyp121: Mycocyclosin synthase (cyp121, Mycobacterium tuberculosis, UniProt P9WPP7)
# UniProt Q9H2X3, sequence (whole entry, looked up): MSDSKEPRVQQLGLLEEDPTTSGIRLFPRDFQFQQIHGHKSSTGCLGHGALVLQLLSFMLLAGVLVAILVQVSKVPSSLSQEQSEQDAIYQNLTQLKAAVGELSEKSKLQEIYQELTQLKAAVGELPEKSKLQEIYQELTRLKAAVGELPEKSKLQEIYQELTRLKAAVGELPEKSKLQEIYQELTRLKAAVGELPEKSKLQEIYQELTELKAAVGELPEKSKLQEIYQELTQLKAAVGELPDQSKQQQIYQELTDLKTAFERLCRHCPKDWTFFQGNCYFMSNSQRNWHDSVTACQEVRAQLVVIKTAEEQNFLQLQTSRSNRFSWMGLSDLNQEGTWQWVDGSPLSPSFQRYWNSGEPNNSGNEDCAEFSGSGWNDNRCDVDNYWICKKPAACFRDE
# UniProt P9WPP7, sequence (whole entry, looked up): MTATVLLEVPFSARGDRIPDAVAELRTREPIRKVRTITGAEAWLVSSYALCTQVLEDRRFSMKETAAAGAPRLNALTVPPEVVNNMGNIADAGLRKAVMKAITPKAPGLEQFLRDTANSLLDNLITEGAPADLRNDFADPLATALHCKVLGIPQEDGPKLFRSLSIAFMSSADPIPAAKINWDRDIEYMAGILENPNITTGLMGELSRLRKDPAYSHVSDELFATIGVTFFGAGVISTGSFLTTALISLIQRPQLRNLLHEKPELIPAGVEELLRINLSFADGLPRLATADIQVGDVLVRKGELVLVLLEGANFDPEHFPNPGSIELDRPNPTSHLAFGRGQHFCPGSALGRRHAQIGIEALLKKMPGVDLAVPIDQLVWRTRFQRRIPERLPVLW
# UniProt P42575, sequence (whole entry, looked up): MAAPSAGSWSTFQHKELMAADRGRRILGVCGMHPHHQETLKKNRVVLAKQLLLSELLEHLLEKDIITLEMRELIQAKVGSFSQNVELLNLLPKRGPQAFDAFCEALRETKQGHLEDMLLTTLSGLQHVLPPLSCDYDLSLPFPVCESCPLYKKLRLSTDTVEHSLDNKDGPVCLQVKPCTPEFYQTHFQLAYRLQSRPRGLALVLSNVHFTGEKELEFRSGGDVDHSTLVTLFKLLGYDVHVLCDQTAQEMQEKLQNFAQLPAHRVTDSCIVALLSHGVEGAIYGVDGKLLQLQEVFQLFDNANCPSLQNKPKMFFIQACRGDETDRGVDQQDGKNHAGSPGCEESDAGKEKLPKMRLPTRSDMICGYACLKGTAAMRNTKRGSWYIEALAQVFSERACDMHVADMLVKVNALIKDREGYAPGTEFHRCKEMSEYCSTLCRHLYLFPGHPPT
# UniProt P17658, sequence (whole entry, looked up): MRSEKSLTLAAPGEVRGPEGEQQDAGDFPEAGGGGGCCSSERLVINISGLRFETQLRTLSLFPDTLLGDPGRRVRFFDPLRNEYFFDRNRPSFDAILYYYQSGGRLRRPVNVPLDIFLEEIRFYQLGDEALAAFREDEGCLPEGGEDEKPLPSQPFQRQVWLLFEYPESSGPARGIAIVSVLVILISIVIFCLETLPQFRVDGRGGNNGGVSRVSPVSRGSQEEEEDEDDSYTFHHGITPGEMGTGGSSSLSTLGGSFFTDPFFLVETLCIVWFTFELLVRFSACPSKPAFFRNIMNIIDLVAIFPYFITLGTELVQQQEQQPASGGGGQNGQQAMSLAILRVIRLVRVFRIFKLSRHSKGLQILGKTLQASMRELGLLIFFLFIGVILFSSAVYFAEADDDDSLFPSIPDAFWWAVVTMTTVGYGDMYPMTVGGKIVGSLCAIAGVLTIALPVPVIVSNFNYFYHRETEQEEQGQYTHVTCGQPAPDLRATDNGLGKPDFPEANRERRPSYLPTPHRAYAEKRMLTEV
# UniProt P9WIA1, sequence (whole entry, looked up): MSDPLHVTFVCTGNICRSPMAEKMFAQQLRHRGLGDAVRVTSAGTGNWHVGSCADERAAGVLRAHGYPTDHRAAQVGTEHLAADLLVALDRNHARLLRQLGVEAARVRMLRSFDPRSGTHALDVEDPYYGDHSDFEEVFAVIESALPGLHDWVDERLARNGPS
Compound,target,test,conditions,IC50
CN(Cc1ccc2ncccc2c1)c1ccc(C(=O)NC(CCC(=O)O)C(=O)O)cc1 (stereo not drawn),4'-phosphopantetheinyl transferase PptT,"enzyme activity, inhibitor, fluorescence polarization",enzyme 100 nM,> 25 µM
c1cn(Cc2ccc(-c3ccc4c(c3)OCO4)cc2)cn1,cyp121,"substrate depletion, inhibitor, LC-MS/MS",with: cYY 20 µM,34 µM
CC(C)CC(C(=O)N1CC2(CC1C#N)C(=O)Nc1ccccc12)N(C)C(=O)c1cc2c(F)cc(F)c(F)c2[nH]1 (stereo not drawn),"Caspase-2 (Homo sapiens, UniProt P42575)","enzyme activity, inhibitor",,4.63 µM and 4.6 µM
C#CCN(Cc1ccc2nc(C)[nH]c(=O)c2c1)c1ccc(C(=O)NC(CCC(=O)O)C(=O)O)c(O)c1 (stereo not drawn),4'-phosphopantetheinyl transferase PptT,"enzyme activity, inhibitor, FP",,0.035 µM
N=C(N)NCc1cn([C@@H]2[C@@H](OCCCl)O[C@H](CO)[C@@H](O)[C@@H]2O)nn1,"C-type lectin domain family 4 member M, extracellular domain (CLEC4M, Homo sapiens, UniProt Q9H2X3)",inhibitor,,24.1 µM and 23.7 µM
N[C@@H](CCC(=O)N[C@@H](CS[Se]Cc1ccc(C(=O)Nc2ccccc2)cc1)C(=O)NCC(=O)O)C(=O)O,"Low molecular weight protein-tyrosine phosphatase A (Mycobacterium tuberculosis, UniProt P9WIA1)",enzyme activity,,2.83 µM
C(=C\c1ccc(-c2ccccc2)cc1)/Cn1ccnc1,cyp121,"substrate depletion, inhibitor, LC-MS/MS",with: cYY 20 µM,21 µM
C#CCN(Cc1ccc2nc(C)[nH]c(=O)c2c1)c1ccc(C(=O)N[C@H](CCC(=O)O)C(=O)O)cc1,4'-phosphopantetheinyl transferase PptT,"enzyme activity, inhibitor, FP",,0.079 µM
CC[C@H](C)[C@@H]1NC(=O)[C@@H](NC(=O)CNC(=O)[C@@H](N)CCCCN)CSSC[C@@H]2NC(=O)[C@@H]3CSSC[C@H](NC(=O)[C@H](CCC(N)=O)NC(=O)[C@H](CC(C)C)NC(=O)[C@@H]4CCCN4C(=O)[C@H](CCCNC(=N)N)NC2=O)C(=O)N[C@@H](CCCCN)C(=O)NCC(=O)N2CCC[C@H]2C(=O)N[C@@H](CO)C(=O)N2CCC[C@H]2C(=O)N[C@@H](CCCCN)C(=O)N[C@@H](CCC(N)=O)C(=O)N[C@@H](CCCCN)C(=O)N[C@@H](CCCCN)C(=O)N[C@H](C(=O)N[C@H](C(=O)N[C@@H](CCCCN)C(=O)N[C@H](C(=O)O)C(C)C)[C@@H](C)O)CSSC[C@H](NC(=O)[C@H](Cc2c[nH]c4ccccc24)NC(=O)[C@H](CCCCN)NC(=O)CNC(=O)[C@H](CCC(=O)O)NC(=O)[C@H](CCCCN)NC1=O)C(=O)N1CCC[C@H]1C(=O)N[C@@H](CCCCN)C(=O)N[C@@H]([C@@H](C)O)C(=O)N[C@@H](C)C(=O)N1CCC[C@H]1C(=O)N3,"Potassium voltage-gated channel subfamily A member 6 (Homo sapiens, UniProt P17658)","ion current, inhibitor, patch clamp",pH 7.4,0.0044 µM

# Excerpt of the above:
Compound,target,test,conditions,IC50
CC[C@H](C)[C@@H]1NC(=O)[C@@H](NC(=O)CNC(=O)[C@@H](N)CCCCN)CSSC[C@@H]2NC(=O)[C@@H]3CSSC[C@H](NC(=O)[C@H](CCC(N)=O)NC(=O)[C@H](CC(C)C)NC(=O)[C@@H]4CCCN4C(=O)[C@H](CCCNC(=N)N)NC2=O)C(=O)N[C@@H](CCCCN)C(=O)NCC(=O)N2CCC[C@H]2C(=O)N[C@@H](CO)C(=O)N2CCC[C@H]2C(=O)N[C@@H](CCCCN)C(=O)N[C@@H](CCC(N)=O)C(=O)N[C@@H](CCCCN)C(=O)N[C@@H](CCCCN)C(=O)N[C@H](C(=O)N[C@H](C(=O)N[C@@H](CCCCN)C(=O)N[C@H](C(=O)O)C(C)C)[C@@H](C)O)CSSC[C@H](NC(=O)[C@H](Cc2c[nH]c4ccccc24)NC(=O)[C@H](CCCCN)NC(=O)CNC(=O)[C@H](CCC(=O)O)NC(=O)[C@H](CCCCN)NC1=O)C(=O)N1CCC[C@H]1C(=O)N[C@@H](CCCCN)C(=O)N[C@@H]([C@@H](C)O)C(=O)N[C@@H](C)C(=O)N1CCC[C@H]1C(=O)N3,"Potassium voltage-gated channel subfamily A member 6 (Homo sapiens, UniProt P17658)","ion current, inhibitor, patch clamp",pH 7.4,0.0044 µM
